# Published values gathered from unrelated publications.
# A part holds a random share of what one study measured. Positions count from the first letter of the parent shown.

# Series 1
# Target: RING finger protein unkempt homolog, zinc fingers 1-6, GST-SBP tag (UNK, Homo sapiens, UniProt Q9C0B0, residues 30-357)
# Chain of UniProt Q9C0B0 (30-357, looked up): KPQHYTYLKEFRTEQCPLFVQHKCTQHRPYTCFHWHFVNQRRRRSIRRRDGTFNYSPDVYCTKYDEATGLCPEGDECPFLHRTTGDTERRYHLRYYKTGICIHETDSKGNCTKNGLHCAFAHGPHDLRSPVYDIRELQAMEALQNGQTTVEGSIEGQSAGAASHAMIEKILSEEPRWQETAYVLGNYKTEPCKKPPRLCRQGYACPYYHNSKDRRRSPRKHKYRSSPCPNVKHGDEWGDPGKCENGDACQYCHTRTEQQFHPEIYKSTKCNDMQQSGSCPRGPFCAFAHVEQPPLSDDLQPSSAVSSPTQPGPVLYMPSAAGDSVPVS
# Method: RNA Bind-n-Seq
# Molecule type: RNA
# Medium: in vitro
# Concentration: not given
# Setting: RNA with constant flanks, human-mouse chimeric sites, ends assumed
# Baseline: input RNA pool
# Reading: higher = stronger binding
# Shared flanks, not repeated: GGGAGUUCUACAGUCCGACGAUC … CAACAGAGGAUUGAGCAUCA
Oligonucleotide,bound/input enrichment [ratio]
AGAGCCCAGGACGUUGAUGCUACAAAUCCAAAUUACGAAAUUAUGUGUAUGAUCAGAGACUUCAGAGGGAGCUUGGAUUAUAGACCACUAACAACAGCAGAUCCUAUUGAUGAACAUAGG,0.544
CAGCUGCAGACAGAAAAGGAUGAAAAGGAGCUGUAUAAGGUACAUUUGAAGAAUACAGAAAUAGAAAAUACGAAGCUUGUGUCAGAGAUACAGACUUUAAAGAAUUUAGAUGGGAACAAA,2.44
CUGGCCUGGCCCUCCCCAGGGGCCUCCUUUCGUAUAGUCACUGCUUCUGCUACGGAUACUUUCAGCUGCAACUCCCUACUGGGUGGGGCACCCAUUUGAGGCAGGGUGUUUUGGUACCCU,0.362
GAUAGGAAAAGCUUGUUGGAGACCCGCUUGCACAUCACUGGUAGAGACCUGAGGUGUCAAAUAGCUGAAACUUUCGGAUUUCAAGAAAAUUACAUCAAGAUCGUAAUAAAUAAGAAACAG,0.504
UGUAGUUUCUUGAUUUAGUGGCUGGGCCUUUUCUUUCUUUCCUUUAGGAAAAGCCUAAAGAUUAGGUUGUAAGAAAAACAGAAGCCAUGUUUCGAAGACCUGUGUUACAGGUAUUUCGUC,0.249
UACAUCACCAAUGUCCUACAAAAUCCUGACUUGGCUCUGAGAAUGGCUGUGCGGAACAACUUAGCCGGUGCUGAAGAACUCUUUGCCCGGAAAUUUAAUGCUCUCUUCGCCCAGGGAAAC,0.451
AAAGGCAAAAAGGGCAGCUGUGUCAUUUCAUAAGUAAAACUGCAUCCGGGAAAUUCUGUUCUUUUGUUUAAUUUUCCCCCAAAUGAAGCCAAAGUGUGUGUUGAAGAACUGAGAAAAAAU,0.255
GGAAGUACAUUAAUGGAGAUUGAUGGUGACAAAGGCAAGCAGGGCGGGCCCACCUACUACAUAGACACUAAUGCUCUCCGCGUGCCCAGGGAGAACAUGGAGGCCAUCUCACCACUCAAG,0.559

# Series 2
# Target: FOS, bZIP domain (human)
# Method: DHFR protein complementation
# Medium: yeast
# Setting: single substitutions, most at no-binding floor
# Baseline: wild-type JUN-FOS pair
# Reading: higher = stronger binding
# Starting sequence: JUN, bZIP domain (human); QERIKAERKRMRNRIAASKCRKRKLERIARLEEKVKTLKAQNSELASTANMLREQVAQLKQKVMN; partner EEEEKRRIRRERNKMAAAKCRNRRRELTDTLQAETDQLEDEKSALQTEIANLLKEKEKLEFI
Variant,binding fitness
S47P,-1.29 natural log
V56P,-1.23 natural log
V35Q,-0.414 natural log
I28W,-0.218 natural log
T37Y,-0.144 natural log
K39Y,-0.844 natural log
E33Q,-0.232 natural log
M51W,-0.158 natural log
E54S,-0.214 natural log
I28R,-0.0836 natural log
L38H,-1.35 natural log

# Series 3
# Target: CCNE2, cyclin fold, Cln2 fusion (human)
# Method: yeast growth competition, sequencing
# Medium: yeast
# Setting: weak parent motif
# Baseline: not given
# Reading: higher = stronger binding
# Starting sequence: RB1 docking peptide (human); PKPLKKLRFDIEG; partner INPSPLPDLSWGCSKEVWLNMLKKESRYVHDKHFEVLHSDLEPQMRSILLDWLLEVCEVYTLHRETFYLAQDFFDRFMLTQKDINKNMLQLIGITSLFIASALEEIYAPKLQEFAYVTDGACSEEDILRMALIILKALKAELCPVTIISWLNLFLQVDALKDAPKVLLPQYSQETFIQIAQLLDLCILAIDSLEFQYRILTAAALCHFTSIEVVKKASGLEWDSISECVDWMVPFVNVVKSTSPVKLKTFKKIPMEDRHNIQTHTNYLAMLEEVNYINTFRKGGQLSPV
Variant,normalised enrichment score
R8C,0.134
G13I,0.276
P1I,0.171
P1T,0.839
K5S,1.25
L4M,1.06
D10V,0.0077
R8N,-0.414
K6S,0.467
F9R,0.386
E12H,0.427
K5I,0.363
P1E,0.499

# Single results of other studies
Substance,target,assay,system,setting,how to read,quantity,value
"PhoQ, residues 284 288 289 292 302 303 AGCYAI","PhoP, residues 12 14 15 18 19 STWGI (Escherichia coli, UniProt P23836)","Sort-seq, item: YFP reporter",E. coli,"PhoQ-PhoP variant library, together with: 10 µM Mg2+","baseline: high Mg2+ state, higher = stronger signaling",fold induction,1.22

# Excerpt of the above (series 3):
Variant,normalised enrichment score
G13I,0.276
P1I,0.171
P1T,0.839
